Measured values gathered from unrelated publications.
Lines come from different studies, so protocols differ. “And” joins repeats or separate records; there may be more than shown. ± gives the spread as reported.
MAPK8: Mitogen-activated protein kinase 8 (MAPK8, Homo sapiens, UniProt P45983)
STING1 H232R: Stimulator of interferon genes protein (STING1, Homo sapiens, UniProt Q86WV6, H232R)
Protein canopy homolog 3: Protein canopy homolog 3 (Homo sapiens, UniProt Q9BT09)

Structure (SMILES)	tested on	assay	test system	setting	how to read	endpoint	result
Cc1ncsc1-c1ccc(C(C)NC(=O)C2CC(O)CN2C(=O)C(NC(=O)CCCCCCCCCCN2CCCC(Nc3ncc(Cl)c(Nc4ccccc4S(=O)(=O)C(C)C)n3)C2)C(C)(C)C)cc1 (stereo not shown)	22Rv1	RNA-seq, refers to: TDRD7 mRNA	–	concentration not given	relative to: DMSO	log2 fold change	-1.58
CC[C@H](C)[C@@H]1NC(=O)[C@H](Cc2ccccc2)NC(=O)[C@H](CCC(=O)O)NC(=O)[C@H](CCCNC(=N)N)NC(=O)CNC(=O)[C@@H](NC(=O)[C@H](CC(C)C)NC(=O)[C@H](CCCNC(=N)N)NC(=O)[C@@H](NC(=O)CNC(=O)[C@H](Cc2ccc(O)cc2)NC(=O)[C@@H]2CCCN2C(=O)[C@H](C)NC(=O)[C@H](C)NC(=O)[C@@H](N)CCCNC(=N)N)C(C)C)CSSC[C@@H]2NC(=O)[C@@H](NC(=O)[C@H](CO)NC(=O)[C@H](CO)NC(=O)[C@H](CO)NC(=O)[C@H](CC(C)C)NC(=O)CNC(=O)[C@H](C)NC(=O)[C@H](CC(C)C)NC(=O)[C@@H](NC(=O)[C@@H](N)CC(=O)O)C(C)C)CSSC[C@H](NC(=O)CNC(=O)[C@H](Cc3c[nH]c4ccccc34)NC(=O)[C@H](CCCCN)NC2=O)C(=O)N[C@@H](CO)C(=O)N[C@@H](CCCCN)C(=O)N[C@@H](CO)C(=O)N[C@@H](CCC(=O)O)C(=O)N[C@@H]([C@@H](C)CC)C(=O)N[C@@H](CO)C(=O)N[C@@H](CO)C(=O)N[C@@H](CC(C)C)C(=O)N[C@H](C(=O)O)CSSC[C@@H](C(=O)NCC(=O)NCC(=O)N[C@@H](CO)C(=O)N[C@@H](CCCNC(=N)N)C(=O)N[C@@H](Cc2c[nH]c3ccccc23)C(=O)O)NC(=O)[C@H]([C@@H](C)O)NC(=O)[C@H](Cc2ccccc2)NC(=O)[C@H]([C@@H](C)CC)NC(=O)[C@H](C(C)C)NC(=O)[C@H](C)NC(=O)[C@H](CCCNC(=N)N)NC1=O	RXFP3 (Homo sapiens, UniProt Q9NSD7, L246A)	–	HEK-293T	–	relative to: wild type	Emax	119 ± 5.19%
COc1cc(Nc2nccc(-c3cnn4nc(OC)ccc34)n2)cc(C(F)(F)F)c1	LRRK2 (Homo sapiens, UniProt Q5S007)	binding, competition with immobilised ligand	–	1 µM	–	remaining binding	71%
CC(/C=C/C(=O)NO)=C\[C@@H](C)C(=O)c1ccc(N(C)C)cc1	HDAC8 (Homo sapiens, UniProt Q9BY41)	ITC	Tris-HCl buffer	293 K	–	TΔS°	0.6 kcal/mol
Clc1ccc(C(Cn2cncn2)OCc2ccc(Br)cc2)c(Cl)c1 (stereo not shown)	ULK1 (Homo sapiens, UniProt O75385)	enzyme activity, inhibitor, ADP detection	–	0.1 µM	–	activity vs control	110%
O=C(NS(=O)(=O)c1cccs1)c1cc2ccccc2n1Cc1ccc(Br)c2ccccc12	SLC22A12 (Homo sapiens, UniProt Q96S37)	binding, surface plasmon resonance	–	–	–	dissociation rate constant	0.0092 s⁻¹
CN(C)C/C=C/C(=O)Nc1ccc2nc(NCCCCCN(C)C)nc(NCCCCCCN(C)C)c2c1	SETD2 (Homo sapiens, UniProt Q9BYW2)	methyltransferase activity, radiometric	–	–	–	Hill slope	-2
CC(C)Oc1cc(Cl)ccc1CNc1cc(-c2ccccc2)nc2ncnn12	GPR3 (Homo sapiens, UniProt P46089, V196W)	cAMP level, cAMP GloSensor	–	1 nM	higher = more cAMP	cAMP luminescence	51100 a.u. and 47300 a.u. and 34500 a.u. and 33300 a.u.
CN(C)c1ccc(-n2cc(COC(=O)[C@]3(C)C=C(C(=O)OC(C)(C)C)C(=O)CC3)nn2)cc1	MAPK8	D-peptide binding, inhibitor, FP peptide displacement	–	25 µM	lower is stronger displacement	fraction bound	0.32
CN(C(=O)[C@@H]1CSCC(=O)N[C@@H](Cc2ccccc2)C(=O)N[C@@H](CO)C(=O)N[C@@H](Cc2ccccc2)C(=O)N[C@@H](Cc2ccc(O)cc2)C(=O)N[C@@H](Cc2ccc(O)cc2)C(=O)N[C@@H](Cc2c[nH]cn2)C(=O)N[C@@H](Cc2c[nH]c3ccccc23)C(=O)N1)[C@@H](Cc1ccccc1)C(N)=O	STING1 H232R	thermal stability, DSF	–	200 µM	–	ΔTm	9.02 °C
CC(C)OCCOCc1ccc(OCC(O)CN(N=O)C(C)C)cc1 (stereo not shown)	Escherichia coli	Ames test	WP2 uvrA	50 µg/plate, 30 % hamster S9	relative to: solvent control	revertant fold increase	1 fold
C=CC(=O)N1CCCC(n2c(=O)c3ncccc3n(Cc3ccc(Oc4ccccc4)cc3)c2=O)C1 (stereo not shown)	Elongin-C (Homo sapiens, UniProt Q15369)	thermal proteome profiling, refers to: ELOC	–	treated	–	melting temperature	49.4 °C and 46.4 °C
O=C(O)c1ccc(OP(=O)(O)O)c(CN2CCC(=C3c4ccc(Cl)cc4CCc4cccnc43)CC2)c1	Alkaline phosphatase, placental type (Homo sapiens, UniProt P05187)	substrate	–	100 µM, pH 7.6, 37 °C	–	drug formation rate	1.53 pmol/min
Cc1cc(C)cc(COc2cc3c(cc2OCc2cc(C)cc(C)c2)C2CC(O)(Cc4cn(CCOCCOCCNC(=O)CCCCC5SCC6NC(=O)NC65)nn4)CC(C)N2CC3)c1 (stereo not shown)	Basigin (BSG, Homo sapiens, UniProt P35613)	biotinylated probe pull-down	–	10 µM probe	relative to: heavy over light	SILAC ratio	2.06
COC(=O)[C@]1(Cc2ccccc2)C=C(C(=O)OC(C)(C)C)C(=O)CC1	MAPK8	D-peptide binding, inhibitor, FP peptide displacement	–	1000 µM	lower is stronger displacement	fraction bound	-0.0933
CN(Cc1cc(C2CC2)on1)C(=O)c1cccc(-c2ccc3c(c2)CCO3)c1	acetoacetyl-CoA synthetase (Cryptococcus neoformans)	enzyme activity, inhibitor	–	3.91 µM	–	remaining activity	106%
CCCCCC=CC=C1C(=O)C=CC1CC=CCCCC(=O)O (stereo not shown)	Protein canopy homolog 3	competitive isoTOP-ABPP	proteome, soluble, MDA-MB-231	100 µM, 60 min, added: iodoacetamide probe	relative to: DMSO over compound-treated, higher = stronger cysteine blockade	isoTOP-ABPP competition ratio	12

Structure (SMILES)	tested on	assay	test system	setting	how to read	endpoint	result
C=CC(=O)N1C[C@H](C)N(c2nc(OC[C@@]34CCCN3C[C@H](F)C4)nc3c(F)c(-c4ccc(F)c5sc(N)c(C#N)c45)c(C(F)(F)F)cc23)C[C@H]1C	GTPase KRas, GppNHp-bound (KRAS, Homo sapiens, UniProt P01116)	SPR	–	wild type	relative to: GppNHp-bound over GDP-bound	on-rate decrease	20 fold
COC1CN([C@H]2CC[C@H]([C@@]3(C)Oc4c(Cl)cc(C(=O)NCc5c(SC)cc(C)[nH]c5=O)c(C)c4O3)CC2)C1	–	RNA-seq, refers to: GAREM1 mouse homolog	mouse, HT-1376 xenograft, whole blood	dose not given	relative to: vehicle	log2 fold change	0.463
CCCCCCCCCCCCC/C=C/C=O	Protein canopy homolog 3	competitive isoTOP-ABPP	proteome, soluble, MDA-MB-231	100 µM, 60 min, added: iodoacetamide probe	relative to: DMSO over compound-treated, higher = stronger cysteine blockade	isoTOP-ABPP competition ratio	1
Cc1nn(-c2cccc(N)c2)c(=O)c2cnc(Nc3ccc(N4CCNCC4)cc3)nc12	ABL2 (Homo sapiens, UniProt P42684)	enzyme activity, inhibitor	–	–	–	IC50	1620 nM
C=CC(=O)Nc1cccc(Cn2ncc3cnc(Nc4cnn(CCOC)c4)nc32)c1	human NIK	KINOMEscan	–	100 nM	relative to: control	binding	69%
CCOc1ccc(C(=O)N2c3ccc(F)cc3[C@@H](Nc3ccccc3)C[C@H]2C)cc1	Ecdysone receptor (Aedes albopictus, UniProt Q9U3Y4)	ligand binding, inhibitor	intact cells	added: [3H]ponasterone A	direction not given	pIC50 Z-score	0.39
CCn1cc(-c2cccc(C(F)(F)F)c2)c2sc(C(=N)NC3CCS(=O)(=O)CC3)cc2c1=O	Bromodomain testis-specific protein, BD2 (BRDT, Homo sapiens, UniProt Q58F21)	–	–	–	–	ΔTm	2.4 °C
C=C1CC2(C(=O)OC)C=C(C(=O)OC(C)(C)C)C(=O)C1C2 (stereo not shown)	MAPK8	D-peptide binding, inhibitor, FP peptide displacement	–	7.812 µM	lower is stronger displacement	fraction bound	0.893
CC(C)[C@@H]1NC(=O)[C@H](Cc2ccccc2)NC(=O)CSC[C@@H](C(N)=O)NC(=O)[C@H](CCC(=O)O)NC(=O)[C@H](CO)NC(=O)[C@H](Cc2c[nH]c3cccc(Cl)c23)NC(=O)[C@H](C2CCCCC2)NC(=O)[C@H](C(C)C)NC(=O)[C@H](Cc2ccc(O)cc2)NC(=O)[C@H](CC(=O)O)NC(=O)[C@H](Cc2c[nH]c3ccccc23)NC(=O)[C@H](Cc2ccc(N)nc2)NC(=O)[C@H](Cc2c[nH]c3ccc(Cl)cc23)NC(=O)[C@H](CCC(=O)O)NC1=O	Interleukin-1 receptor-like 2 (IL1RL2, Homo sapiens, UniProt Q9HB29)	reporter gene (SEAP), inhibitor, HEK-Blue IL-36R reporter	HEK-Blue IL-36R cells	0.41 µM, 6 h, added: IL-36γ 0.03 ng/mL	–	remaining activity	0.1%
COc1ccccc1-c1ccncc1C(=O)Nc1nnc(OCc2ccc(Cl)cc2)s1	DNA polymerase theta, helicase domain (POLQ, Homo sapiens, UniProt O75417)	ATPase activity, ADP-Glo	–	0.24 µM, added: ATP 600 µM	–	remaining activity	29%
Cc1cn(CC(=O)N(CCNC(=O)CN(CCNC(=O)CN(CCNC(=O)CN(CCNC(=O)CN(CCNC(=O)CN(CCNC(=O)CN(CCNC(=O)CN(CCN)C(=O)Cn2cnc3c(=O)[nH]c(N)nc32)C(=O)Cn2cnc3c(N)ncnc32)C(=O)Cn2cc(C)c(=O)[nH]c2=O)C(=O)Cn2cnc3c(=O)[nH]c(N)nc32)C(=O)Cn2cc(C)c(=O)[nH]c2=O)C(=O)Cn2cnc3c(=O)[nH]c(N)nc32)C(=O)Cn2cnc3c(N)ncnc32)CC(=O)NCCN(CC(=O)NCCOCCOCC(N)=O)C(=O)Cn2cnc3c(N)ncnc32)c(=O)[nH]c1=O	complementary RNA	duplex formation, UV melting curve fit	PBS	1 µM, 298 K	–	ΔG	-12.4 ± 0.1 kcal/mol
CC(C)C[C@@H]1NC(=O)[C@H](Cc2ccccc2)NC(=O)CSC[C@@H](C(=O)NCC(N)=O)NC(=O)[C@H](Cc2ccc(O)cc2)NC(=O)[C@H](C(C)C)NC(=O)[C@H](Cc2ccccc2)NC(=O)[C@H](Cc2ccc(O)cc2)NC(=O)[C@H](Cc2ccccc2)NC(=O)[C@H](CC(=O)O)NC(=O)[C@H](CC(N)=O)NC(=O)[C@H](CC(N)=O)NC(=O)[C@H](Cc2ccc(O)cc2)NC(=O)[C@H](C(C)C)NC(=O)[C@H](Cc2ccccc2)NC1=O	STING1 H232R	thermal stability, DSF	–	100 µM	–	ΔTm	0.2 °C
CC(C)(C(=O)N1CCC(Nc2nc3c(c(=O)[nH]2)CCCC3)CC1)c1ccc(Cl)cc1	MRGPRD, part with Gi1 (Homo sapiens, UniProt Q8TDS7)	Gi1 dissociation, agonist, BRET2	–	–	relative to: wild type	Emax	89.9 ± 13.7%
CCCC1(C)C(=O)N(c2cccc(CN3CCN(Cc4ccc(Br)cc4)CC3)c2)C1=O	Dipeptidyl peptidase 8 (Homo sapiens, UniProt Q6V1X1)	enzyme activity, inhibitor	–	5 µM	–	activity vs control	9.5%
Nc1ncc(-c2cc(-c3cnn(CC(F)(F)F)c3)ncc2F)nc1C(=O)NC1CNCC(F)C1 (stereo not shown)	FRK	KINOMEscan	–	1 µM	relative to: DMSO control	remaining binding	81%
OC(Cc1cc(-c2ccc(C(O)C(F)(F)F)s2)sc1-c1ccc(-c2sc(-c3ccc(C(O)C(F)(F)F)s3)cc2CC(O)C(F)(F)F)s1)C(F)(F)F (stereo not shown)	primary human fetal neurons	LC-MS/MS	–	4 µM, 60 min, replicate 3	–	amount in extracellular wash	0.02 nmol and 0.01 nmol
CCOC(=O)[C@@](CC)(CCCSCCOCCOCCN)NC(=O)c1ccc(C2CC2)c(Cc2ccc(F)cc2)n1	Cnr2 (Mus musculus, UniProt P47936)	cAMP, agonist	–	–	–	Emax	61%
